# Assay results collected from several papers.
# Numbered parts are unrelated; each lists some results of a single study.

# Study 1 — method: aptamer microarray, sandwich; form: DNA with 2'F-ANA; sample: in vitro; tested at: 200 nM; added: Cy3 exosite-II aptamer, 400 nM; reading: higher = stronger binding; oligonucleotide: GGTTGGTGTGGTTGG
# Target: Prothrombin, mature alpha-thrombin (F2, Homo sapiens, UniProt P00734)
# Notes: whole 15-mer aptamer, many near background
Modification,mean fluorescence intensity [a.u.]
2'F-ANA at 3 5 11 14,60.6
2'F-ANA at 1 2 3 4 8 11 12 14 15,80
2'F-ANA at 1 2 3 4 5 13 15,130
2'F-ANA at 1 5 7 9 10 13 15,74.1
2'F-ANA at 1 2 5 10 14,49.1
2'F-ANA at 2 6 9 13 14 15,293
2'F-ANA at 1 3 4 5 6 7 9 10 11 12 14 15,54.3
2'F-ANA at 7 10 14,142
2'F-ANA at 3 5 6 7 8 9 10 13 14,50.7
2'F-ANA at 1 4 5 6 11 12 13 14 15,61
2'F-ANA at 1 2 3 5 6 11 12 13 14 15,51.5
2'F-ANA at 2 4 6 8 12 14,142
2'F-ANA at 1 3 5 9 15,64.7
2'F-ANA at 1 2 4 8 10 13 14,80
2'F-ANA at 1 3 5 9 10 11 12 13 15,50.5
2'F-ANA at 1 6 9 10 11 12 13,61
2'F-ANA at 1 4 8 14 15,58.3
2'F-ANA at 1 2 5 6 8 13 14,48
2'F-ANA at 2 3 7 10 13 15,406
2'F-ANA at 5 7 11 12 14 15,47.4
2'F-ANA at 2 4 6 12 14,119

# Study 2 — target: UBE2S UBC core domain (UniProt Q16763); method: yeast two-hybrid; sample: yeast; notes: mostly zero background; relative to: not given; reading: higher = stronger interaction
# B1: TRIM55 RING domain (UniProt Q9BYV6); chain TMDNLEKQLICPICLEMFTKPVVILPCQHNLCRKCASDIFQASNPYLPTRGGTTMASGGRFRCPSCRHEVVLDRHG
# B2: TRIM52 RING domain (UniProt Q96A61); chain PMQTLQEEAVCAICLDYFKDPVSISCGHNFCRGCVTQLWSKEDEEDQNEEEDEWEEEEDEEAV
# B3: RNF175 RING domain (UniProt Q8N4F7); chain LPTRSLSDNICAVCGQKIIVELDEEGLIENTYQLSCNHVFHEFCIRGWCIVGKKQTCPYCKEKVDLKRMIS
# B4: RNF150 RING domain (UniProt Q9ULK6); chain DKETESDFDNCAVCIEGYKPNDVVRILPCRHLFHKSCVDPWLLDHRTCPMCKMNILKALGIP
# B5: RNF4 RING domain (UniProt P78317); chain TGLRPSGTVSCPICMDGYSEIVQNGRLIVSTECGHVFCSQCLRDSLKNANTCPTCRKKINHKRYHP
# B6: PHF7 RING domain (UniProt Q9BWX1); chain IQHGHVGEESCILCCEDLSQQSVENIQSPCCSQAIYHRKCIQKYAHTSAKHFFKCPQCNNRKEFPQEML
# Construct (chain): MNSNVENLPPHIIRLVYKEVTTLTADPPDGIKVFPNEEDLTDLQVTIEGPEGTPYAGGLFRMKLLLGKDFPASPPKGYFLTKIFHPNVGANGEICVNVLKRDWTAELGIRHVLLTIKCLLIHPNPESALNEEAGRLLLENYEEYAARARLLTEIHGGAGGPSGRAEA
Sequence,lacZ reporter activity
B1 (TRIM55 RING domain),0
B2 (TRIM52 RING domain),0
B3 (RNF175 RING domain),0
B4 (RNF150 RING domain),0
B5 (RNF4 RING domain),0
B6 (PHF7 RING domain),0

# Study 3 — method: RNA Bind-n-Seq; form: RNA; sample: in vitro; tested at: 90 pmol; notes: 4-mer, random 30-nt RNA, single round; relative to: input library; reading: higher = stronger binding
# Target: Eukaryotic initiation factor 4A-I (EIF4A1, Homo sapiens, UniProt P60842, residues 1-406, full length assumed)
# Chain of UniProt P60842 (whole entry, looked up): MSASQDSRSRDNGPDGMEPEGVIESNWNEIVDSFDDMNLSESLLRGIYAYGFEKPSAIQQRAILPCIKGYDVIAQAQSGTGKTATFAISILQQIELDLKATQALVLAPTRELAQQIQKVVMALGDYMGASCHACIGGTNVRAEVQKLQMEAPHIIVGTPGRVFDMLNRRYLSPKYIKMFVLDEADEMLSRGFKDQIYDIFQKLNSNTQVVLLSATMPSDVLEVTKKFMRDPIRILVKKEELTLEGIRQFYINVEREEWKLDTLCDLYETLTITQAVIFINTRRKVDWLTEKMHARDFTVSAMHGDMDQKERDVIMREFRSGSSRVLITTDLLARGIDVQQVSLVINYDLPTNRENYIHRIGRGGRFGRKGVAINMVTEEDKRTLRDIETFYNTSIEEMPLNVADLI
# Added: 3 µM iPr-DMDA-PatA, 2 mM ADP, 2 mM phosphate
Oligonucleotide,4-mer enrichment [fold]
GUCU,0.925
GGCC,0.61
GCUU,0.834
AGGC,0.868
UUCG,0.944
UUGG,0.805
CCUA,1.03
GUAU,1.07
UGUG,0.832
GACU,1.1
AAUC,1.29
CGUC,0.853
GUAC,0.986
GUAG,0.952
AAUA,1.53
UGCA,0.893

# Study 4 — method: RNA Bind-n-Seq; form: RNA; sample: in vitro; tested at: not given; relative to: input RNA pool; reading: higher = stronger binding
# Target: RING finger protein unkempt homolog, zinc fingers 1-6, GST-SBP tag (UNK, Homo sapiens, UniProt Q9C0B0, residues 30-357)
# Chain of UniProt Q9C0B0 (30-357, looked up): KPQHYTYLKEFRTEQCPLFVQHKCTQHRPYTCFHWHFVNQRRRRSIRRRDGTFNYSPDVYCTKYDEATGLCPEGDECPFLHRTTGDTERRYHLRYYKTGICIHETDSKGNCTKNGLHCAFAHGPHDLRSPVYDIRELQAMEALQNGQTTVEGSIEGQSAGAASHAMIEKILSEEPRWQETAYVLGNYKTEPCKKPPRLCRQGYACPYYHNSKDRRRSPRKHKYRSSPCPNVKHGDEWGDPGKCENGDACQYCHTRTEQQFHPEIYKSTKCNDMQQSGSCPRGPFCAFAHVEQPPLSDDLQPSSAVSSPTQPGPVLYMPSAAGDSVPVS
# Notes: RNA with constant flanks, human and mouse sites, ends assumed
# Constant ends, left off below: GGGAGUUCUACAGUCCGACGAUC … CAACAGAGGAUUGAGCAUCA
Oligonucleotide,bound/input enrichment
UUAGAUAAGCAGGUGAAAAACGGACCCUCAUUAACAGAAGCACUGGAAAAUGCUGGAAUUUUCUAUGAAGCACAAUACAAAGAAGUAAAAGUGGUGGCUAAUGCAUAUAAAACCUUUGCU,0.569 ratio
AAAGGUGACAAGGCUCUUGAUGGCUAUAGUAAAAAAAAGUACGUCUGCAAGUUGCUCUUCAUCUUUCUCCUUGGUCAUGACAUUGACUUUGGACACAUGGAGGCUGUGAACCUGCUGAGU,0.167 ratio
GUGUCAGAGGCCAGGAGCCCAGCCGGGGCGAUGUGGAUGACGCCUUGGGAAAGUUUUCCCUAACACUGAUUGAUUCUUUGGACACUCUUGUGGUAUUAAACAAAACUAAGGAAUUUGAAG,0.335 ratio
CACUGCAUUGCCACUGAGAACAGCUUCAAACAGACCAUAGCCAAGAUCAACUUCAAAGUUUUAGAUUCAGAAAUGGUGGCCGUUGUGACAGACAAGUGGUCCCCGUGGACAUGGGCUGGC,0.246 ratio
CUGGCAGUUGAGAGACUGUUGGAGCCUCUUGUUACACAGGUUACAACCCUUGUAAACACCAAUAGUAAAGGGCCCUCUAAUAAGAAGAGAGGUCGUUCUAAGAAGGCCCAUGUUUUGGCU,4.53 ratio
ACAGACUGUGUGGUUAUGCGGGAUCCUGCAAGCAAAAGAUCAAGAGGAUUUGGCUUUGUAACUUUCUCAUCCAUGGCCGAGGUUGACGCUGCCAUGGCUGCAAGGCCCCAUUCCAUUGAU,0.14 ratio
AUUCAAGGCGAUAACCUAUUCAGUGGGUCCAGAGAUAAUGGAAUCAAGAAAUGGGACUUAGCUCAGAAAGGUCUUCUUCAGCAAGUCCCAAAUGCACACAAAGACUGGGUGUGUGCCCUG,0.151 ratio
CUGAGACUUACCCAGCAGCCAAAGCCCUGGCCUCCAAGUUCUUUGGCCAACAUGGAGGUGAAAGCCAGCAUACCAUCCAUGCCAUGGGACACUGUCACAUUGAUACAGCCUGGCUUUGGC,0.132 ratio

# Repeated from above (study 1):
Modification,mean fluorescence intensity [a.u.]
2'F-ANA at 1 4 8 14 15,58.3
2'F-ANA at 1 2 5 6 8 13 14,48
2'F-ANA at 2 3 7 10 13 15,406
2'F-ANA at 5 7 11 12 14 15,47.4
2'F-ANA at 2 4 6 12 14,119
